{"data": "Measured values of several laboratories", "target": "Myosin light chain kinase family member 4 (MYLK4, Homo sapiens, UniProt Q86YV6)", "note": "Each line is one published result; not all experiments were run side by side."}
{"Compound": "CCn1cc(C(=O)O)c(=O)c2c(N)c(F)c(NC3CCCCC3)cc21", "test": "kinase activity", "conditions": "0.1 µM, added: ATP at Km", "endpoint": "inhibition", "result": "13%"}
{"Compound": "COc1cc(Nc2nccc(-c3cnn4nc(OC)ccc34)n2)cc(C(F)(F)F)c1", "test": "binding, competition with immobilised ligand", "conditions": "1 µM", "endpoint": "remaining binding", "result": "72%"}
{"Compound": "C=CC(=O)N1Cc2nc(-c3cc(-c4cc(Cl)cnc4Cl)c(F)cc3F)n(-c3ccncn3)c2C1", "test": "cell-free assay, inhibitor", "conditions": "1 µM", "endpoint": "inhibition", "result": "1.8%"}
{"Compound": "CC(C)=CC1OC(C)(C)C2C=C3C(=O)C(Cl)=CC(O)C3C3C(O)C4OC4C(=O)C132 (centres unmarked)", "test": "cell-free assay, competition with immobilised ligand", "conditions": "10 µM", "endpoint": "remaining binding", "result": "89%"}
{"Compound": "COc1cc(Nc2nc(C)cc(-c3cnn4nc(OC)ccc34)n2)cc(C(F)(F)F)c1", "test": "inhibitor", "conditions": "1 µM", "how to read": "baseline: control", "endpoint": "remaining activity", "result": "100%"}
{"Compound": "COc1c(Cl)cccc1Nc1c(-c2ccncc2C#C[C@@]2(C)CCCN2C(=O)/C=C/CN(C)C)[nH]c2c1C(=O)NCC2", "test": "cell-free assay, competition with immobilised ligand", "conditions": "3 µM", "endpoint": "remaining binding", "result": "86%"}
{"Compound": "Nc1ncc(-c2cc(-c3cnn(CC(F)(F)F)c3)ncc2F)nc1C(=O)NC1CNCC(F)C1 (centres unmarked)", "test": "enzyme activity", "conditions": "1 µM", "how to read": "baseline: DMSO control", "endpoint": "remaining activity", "result": "88.4%"}
{"Compound": "Nc1ncc2c(n1)-c1c([nH]c3ccc(C4=CCOCC4)cc13)CCC2", "test": "binding, competition with immobilised ligand", "conditions": "1 µM", "endpoint": "remaining binding", "result": "0.1%"}
{"Compound": "CNC(=O)C1CCN(c2cc(C)c(F)cc2NC(=O)c2ccc(-c3cc(O)ccc3C)c(C)c2)CC1", "test": "binding, competition with immobilised ligand", "conditions": "1 µM", "endpoint": "remaining binding", "result": "100%"}
{"Compound": "Cc1cnc2nc1Nc1cccc(c1)COC/C=C/COCc1cc(ccc1OCCN1CCOCC1)N2", "test": "binding", "conditions": "0.1 µM", "endpoint": "remaining binding", "result": "100%"}
{"Compound": "CNC1C[S+]2CC[S+]3CC[S+](C1)[Ru-4]321([N]=C=S)[n]2c3ccc(OC)cc3c3c4c(c5cc(F)c[n+]1c5c32)C(=O)NC4=O (centres unmarked)", "test": "KinomeScan", "conditions": "0.1 µM", "how to read": "baseline: untreated", "endpoint": "remaining binding", "result": "97%"}
{"Compound": "CCN1CCN(Cc2ccc(C(=O)Nc3ccc(C)c(NCc4cnc5[nH]ccc5c4OC)c3)cc2C(F)(F)F)CC1", "test": "binding, competition with immobilised ligand", "conditions": "1 µM", "endpoint": "remaining binding", "result": "93%"}
{"Compound": "CN1CCN(Cc2ccc(-c3ccc(CO[C@H]4CCC[C@@H]4NC(=O)c4cc(-c5cnn(C)c5)cnc4N)cc3)cc2)CC1", "test": "enzyme activity, inhibitor", "conditions": "0.1 µM", "endpoint": "inhibition", "result": "-17%"}
{"Compound": "Cc1c[nH]c2nccc(-c3ccc(C(=O)N[C@@H]4c5c(F)cc(C(F)F)cc5C[C@@H]4O)cn3)c12", "test": "binding, competition with immobilised ligand", "conditions": "3 µM", "endpoint": "remaining binding", "result": "3.9%"}
{"Compound": "Cc1ccc(-c2c(/C=C(\\C#N)C(=O)NC(C)C)n(CCCO)c3ncnc(N)c23)cc1", "test": "cell-free assay, competition with immobilised ligand", "conditions": "1 µM", "endpoint": "remaining binding", "result": "93%"}
{"Compound": "C=CC(=O)N1CCCC(n2c(=O)c3ncccc3n(Cc3ccc(Oc4ccccc4)cc3)c2=O)C1 (centres unmarked)", "test": "cell-free assay, competition with immobilised ligand", "conditions": "1 µM", "endpoint": "remaining binding", "result": "100%"}
{"Compound": "C=CC(=O)N1CCc2ccc(-n3c(=O)ccc4cnc5ccc(-c6cnn(C)c6)cc5c43)cc21", "test": "KINOMEscan", "conditions": "1 µM", "how to read": "baseline: DMSO control", "endpoint": "remaining binding", "result": "93%"}
